Assay results of several laboratories.
Protocols differ between the studies behind these lines. ± gives the spread as reported.

| Structure (SMILES) | assay | system | setting | endpoint | value |
| --- | --- | --- | --- | --- | --- |
| CCC(CC)n1c(Cc2cccs2)nc2cc(C(=O)N[C@@H](CC(=O)O)c3ccccc3)ccc21 | – | Sprague-Dawley rat, male, plasma | ip, 10 mg/kg | clearance | 47.7 ± 13 mL/min/kg |
| COc1cc(OC)c2c(=O)cc(-c3cc(C)c(OCCCN4CCN(C)CC4)c(C)c3)oc2c1 | – | Sprague Dawley rat, male, plasma | oral, 20 mg/kg | clearance | 48.3 ± 8.33 mL/min/kg |
| CN1CC[C@@H](COc2cnc(C#N)cc2-c2ccn3nc(NC(=O)C4CC4)cc3c2)C1 | – | rat, Sprague-Dawley, male, plasma | intravenous, 1 mg/kg | clearance | 88 mL/min/kg |
| O=C1CC[C@H](N2Cc3cc(N4CCN(CC5CCN(c6ccc([C@@H]7c8ccc(O)cc8CC[C@@H]7c7ccccc7)cc6)CC5)CC4)ccc3C2=O)C(=O)N1 | refers to: parent compound | Sprague-Dawley rat, male, fed, plasma | intravenous, 5 mg/kg | clearance | 15.4 mL/min/kg |
| CCCC[C@H](OC(C)=O)c1ccccc1C(=O)O | – | Sprague-Dawley rats, both sexes, whole blood | intravenous, 20 mg/kg single dose | clearance | 10.1 ± 1.41 mL/min/kg |
| C=C(NC(=O)c1csc(-c2nc3c(cc2O)-c2nc(cs2)C(=O)NC(C(C)O)C(=O)NC(=C(C)OC)c2nc(cs2)C(=O)NC2c4nc(cs4)C(=O)NC(COC(=O)c4c5c6c(cccc6n4O)COC(=O)C(OC4CC(C)(O)C(N(C)C)C(C)O4)C2OC5)c2nc-3cs2)n1)C(N)=O (centres unmarked) | – | Sprague-Dawley rat, female, plasma | intravenous infusion, 2 mg/kg single dose | clearance | 36.1 mL/min/kg |
| O=C([O-])CN1CCN(CC(=O)O)CCN(CC(=O)[O-])CCN(CC(=O)O)CC1.[64Cu+2] | dynamic micro-PET imaging | rat, chronic myocardial infarction, remote myocardium | intravenous | clearance half-life | 19.1 ± 2.4 min |
| Nc1nc2cnc(C(=O)N3CCOC[C@@H]3c3ccc(C(F)(F)F)cc3)cc2c2c1COC2 | – | rat | intravenous, 0.5 mg/kg | clearance | 29.2 mL/min/kg |
| O=C(NS(=O)(=O)c1cccs1)c1cc2ccccc2n1Cc1ccc(Br)c2ccccc12 | – | Sprague-Dawley rat, male, plasma | intravenous, 2 mg/kg | clearance | 16.3 mL/min/kg |
| CCC(CC)n1c(Cc2ccco2)nc2cc(C(=O)N[C@@H](CC(=O)O)c3ccccc3)ccc21 | – | Sprague-Dawley rat, male, plasma | ip, 10 mg/kg | clearance | 34 ± 4.17 mL/min/kg |
| CC1(C)C(NC(=O)C(=NOC2(C(=O)O)CCC2)c2csc(N)n2)C(=O)N1OS(=O)(=O)O (centres unmarked) | – | Sprague-Dawley rat, plasma | intravenous, 10 mg/kg | clearance | 11.7 ± 4.54 mL/min/kg |

A few entries again:
| Structure (SMILES) | assay | system | setting | endpoint | value |
| --- | --- | --- | --- | --- | --- |
| O=C1CC[C@H](N2Cc3cc(N4CCN(CC5CCN(c6ccc([C@@H]7c8ccc(O)cc8CC[C@@H]7c7ccccc7)cc6)CC5)CC4)ccc3C2=O)C(=O)N1 | refers to: parent compound | Sprague-Dawley rat, male, fed, plasma | intravenous, 5 mg/kg | clearance | 15.4 mL/min/kg |
